Measured values pooled from the literature.
Numbered parts are unrelated; each lists some results of a single study. Positions count from the first letter of the parent shown.

Set 1 — method: protein-binding microarray; molecule type: double-stranded DNA, one strand shown; matrix: in vitro; concentration: not given; reading: higher = stronger binding; endpoint: E-score
Target: Protein max, full length (MAX, Homo sapiens, UniProt P61244-2, residues 1-151)
Notes: k-mer, scored over probes, only values ≥0.25
CGCGCCAC: 0.259
CACGCCTC: 0.368
CACGGTGG: 0.301
ACGCTTCA: 0.298
ACACACGA: 0.29
AGACCATG: 0.384
GTGTGCAA: 0.282
CCGCGCAC: 0.302
AACAGCAT: 0.273
ACCGCATG: 0.464
CATGCCGA: 0.399
ACATGATC: 0.359
CACGTTAC: 0.424
CAGTCACA: 0.321
CGTGGCCA: 0.376
CCCACCCG: 0.264
CGTGCGTC: 0.41
ATCGTGCG: 0.288
CGTGTTTC: 0.362
AACAGGTG: 0.396
TCGTGCCA: 0.309
AGTAGCAT: 0.258
GCGGGCAC: 0.275
CCATATGA: 0.321
CACGGGAC: 0.316

Set 2 — method: RNA Bind-n-Seq; molecule type: RNA; matrix: in vitro; concentration: not given; reference: input RNA pool; reading: higher = stronger binding; endpoint: bound/input enrichment
Target: RING finger protein unkempt homolog, zinc fingers 1-6, GST-SBP tag (UNK, Homo sapiens, UniProt Q9C0B0, residues 30-357)
Notes: RNA with constant flanks, human and mouse sites, ends assumed
Residues (chain): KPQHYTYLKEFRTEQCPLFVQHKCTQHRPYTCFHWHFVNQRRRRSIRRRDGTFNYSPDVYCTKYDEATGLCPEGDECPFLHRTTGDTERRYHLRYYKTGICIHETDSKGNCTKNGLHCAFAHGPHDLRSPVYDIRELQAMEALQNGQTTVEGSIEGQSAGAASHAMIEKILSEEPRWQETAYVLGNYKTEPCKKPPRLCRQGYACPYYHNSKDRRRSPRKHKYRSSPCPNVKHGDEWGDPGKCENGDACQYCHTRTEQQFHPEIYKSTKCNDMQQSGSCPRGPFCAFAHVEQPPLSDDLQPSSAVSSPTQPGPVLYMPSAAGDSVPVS
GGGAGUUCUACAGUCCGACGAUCAGUAGGAAAAUUACUGUUUUGCAAGUGAAUGAAAAAUCACUUAUAAGGCAAUAUACAACCUUAGUAGAAUUGGAGCGACAACUUAGAAAAGAAAAUGAGAAGCAAAAGAAUGAAUUGUUGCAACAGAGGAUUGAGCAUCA: 2.73 ratio
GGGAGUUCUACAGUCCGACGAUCAGCACCUACUGUGUUCUCAACACCGUGCCACCUAUAGAAGAUGAUCAUGGGAACAGCAAUAGUAGUCAUGUAAAAAUCUUUUUACCGAAAAAGCUGCUUGAAUGUCUGCCGAAAUGUUCACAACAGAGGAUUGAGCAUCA: 0.123 ratio
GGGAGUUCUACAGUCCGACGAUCGUUUCUAUUCAUCCUAAGUCUGUCAACGUGGAGCAGACAGACUUCCACUACAACUGGCUUAUCUAUCACCUGAAGAUGAGAACAAGCAGUAUAUACUUGUACGACUGUACAGAAGUGUCACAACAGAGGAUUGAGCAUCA: 0.267 ratio
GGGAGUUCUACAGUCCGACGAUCGACCGCAUCGUGCCCGUGGACAUCUACAUCCCAGGCUGCCCACCUACGGCCGAGGCCCUGCUCUACGGCAUCCUGCAGCUGCAGAGGAAGAUCAAGCGGGAGCGGAGGCUGCAGAUCUGGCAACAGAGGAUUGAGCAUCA: 0.0345 ratio
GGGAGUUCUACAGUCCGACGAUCUAAGUAUGAAAUGGUGUAUGCCAGUACACAUUCCUCUUCCAGUUCUCCUAAGUGCUGACCACUAGGUCAGUCUGGGACACAUCAGUGUAUGGCUAGGCUGGCUAGCUUUAGCACAGUGGACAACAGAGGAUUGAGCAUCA: 0.16 ratio
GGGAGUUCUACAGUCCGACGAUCGUGGUUUGGUCGGGGGCCCAGCGGGUGGCCCGGGUCACCGCCCGUGCUUCGGCGGCCAUCUUGCCCGCGCCCGUCUCCCGCGGCGGGAGGGGCGGCGUACAGGCCGGAAACGUCUGUGUGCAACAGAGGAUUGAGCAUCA: 0.22 ratio
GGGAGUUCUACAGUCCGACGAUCACGCCAAACAUGGCGUGUUCCUAGAAGCCGCUUUCGGCAUCAGUAGGCGGCGGCGUGGGGUCUGGCAGCGUGGGGAGAGGGACCAACCGACGCCACUUCGUGUUGGGAAGUGGGAGCGGGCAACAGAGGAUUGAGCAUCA: 0.404 ratio
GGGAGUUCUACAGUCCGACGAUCCCCACCCACCUACCAGCACUUAAGGCCUAGGACACAAGGUCUGUGUGGCCUCCCAGGCUGUAGGUACCCUCAUCUGCAGAAAAUCAGGGACUAGGAGCAGAGCCCCUCACUGAGCAUGUCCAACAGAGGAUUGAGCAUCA: 0.183 ratio
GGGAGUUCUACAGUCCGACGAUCGUUGGAGAUACACAAGUGGUUGUUUUUAAGCAUGAAAAAGAAGAUGGUGCCAUUUCUACUAUAGUUCUUCGAGGUUCUACAGACAAUCUGAUGGAUGACAUAGAAAGGGCAGUAGAUGAUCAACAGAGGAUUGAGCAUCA: 0.762 ratio
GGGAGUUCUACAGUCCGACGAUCCUGAUAGUCCUAGCAAUUGAUCACAAAAGGAGGCUCACAGCAUGUAAAUUCUCUGGUCUUUAUAGCGUUCACCUGGAAUGGACGACCCUUUUUUUUUUCCUUUGCCUUCUACUUAUUUCUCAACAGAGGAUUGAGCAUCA: 3.13 ratio
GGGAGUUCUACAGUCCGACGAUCACGACACACCUUGCUGAUGGAGGUUACCGGCUGCUGGAGAAGUCUGGAGGCUUGCAGAUCAGCUUCGAUGUUUACCAGGCUGACGCUGUGGCGACGUUCCGAAAAAACAGCCCUGGCAAACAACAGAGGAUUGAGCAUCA: 0.117 ratio

Set 3 — method: DHFR PCA, deep sequencing; matrix: yeast; with: (+)-ABA 2500 µM; reference: wild-type fitted maximum; reading: higher = stronger binding; endpoint: relative binding score
Target: ABI1, truncated, D143A, DHFR fusion (Arabidopsis thaliana)
Notes: methotrexate growth selection, single substitutions
Starting sequence: PYL1, truncated, DHFR fusion (Arabidopsis thaliana); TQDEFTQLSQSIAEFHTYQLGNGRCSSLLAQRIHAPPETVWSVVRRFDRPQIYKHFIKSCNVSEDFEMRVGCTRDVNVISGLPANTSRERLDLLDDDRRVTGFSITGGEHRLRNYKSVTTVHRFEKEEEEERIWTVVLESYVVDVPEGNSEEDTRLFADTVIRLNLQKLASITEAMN; partner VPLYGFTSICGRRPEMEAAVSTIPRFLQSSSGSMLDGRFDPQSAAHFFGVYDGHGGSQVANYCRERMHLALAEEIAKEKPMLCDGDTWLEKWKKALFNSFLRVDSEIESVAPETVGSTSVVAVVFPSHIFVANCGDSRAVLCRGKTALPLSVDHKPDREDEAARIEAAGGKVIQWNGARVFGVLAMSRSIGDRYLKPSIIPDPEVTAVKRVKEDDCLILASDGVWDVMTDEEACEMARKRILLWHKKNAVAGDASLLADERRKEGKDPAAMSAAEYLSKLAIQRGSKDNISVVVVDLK
R98P: 48.8%
E38I: 88.6%
F124V: 108%
L138Y: 104%
L93E: 103%
E38H: 89.7%
L8K: 102%
T154P: 55.4%
C60D: 32.9%
I79F: 99.1%
G148D: 91.1%
V78N: 74.7%
L94R: 85%
T1E: 96.8%
T1C: 97%
T135M: -0.271%

Set 4 — method: DNA-protein interaction ELISA; molecule type: double-stranded DNA, one strand shown; matrix: in vitro, bacterial lysate; concentration: not given; notes: whole dsDNA probe, crude lysate protein; reference: highest signal in screen; reading: higher = stronger binding; endpoint: relative absorbance
Target: Probable WRKY transcription factor 50, DNA-binding domain (WRKY50, Arabidopsis thaliana, UniProt Q8VWQ5, residues 99-173)
Construct (chain): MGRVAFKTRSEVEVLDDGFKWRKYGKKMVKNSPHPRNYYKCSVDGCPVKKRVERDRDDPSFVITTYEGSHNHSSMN
AAAAAAGGGTATACTCGCAGCCCCTAAAAA: 9.14 % of maximum
AAAAAATTACTATTACACACTTGGGGAAAA: 15.5 % of maximum
AAAAAATCCTTTTCTCTTTCTGTTTCAAAA: 47.7 % of maximum
AAAAAACATCGCTGTCGTTGACGTTGAAAA: 49.9 % of maximum
AAAAAAGGCCACGGTAACCCCTTTTGAAAA: 10.3 % of maximum
AAAAAATTCCGGCTTGACGCTGCATAAAAA: 29.6 % of maximum
AAAAAACCCGCCGTCGTGATTATCACAAAA: 12.8 % of maximum
AAAAAATCTGTTCTCGTTTCCCCTTCAAAA: 49.3 % of maximum
AAAAAAATTCATGCTATTTAACCTTAAAAA: 24 % of maximum
AAAAAAAACAAAACCTCCTAATAGCGAAAA: 22.7 % of maximum
AAAAAAGCTCCCGTCTCTTAGTTCTAAAAA: 12.5 % of maximum
AAAAAAACGGTGTCATAGTATTAGTGAAAA: 28.3 % of maximum
AAAAAAGGTCCAGTCCACGTCATCAGAAAA: 98 % of maximum
AAAAAAACCGATTACCATTTTTACTGAAAA: 15.1 % of maximum
AAAAAACCGTATGTATATCTATATGTAAAA: 47.7 % of maximum
AAAAAACAACTTGGAGGATTTACAGCAAAA: 16 % of maximum
AAAAAATATTCGCCGGTAGCCACGCTAAAA: 35.2 % of maximum
AAAAAATTGCCGTCATAATTGTGGTAAAAA: 11.8 % of maximum
AAAAAAACCCGGCCGCCATGGTAGTAAAAA: 18.1 % of maximum
AAAAAAGGTAGTCACATTACGAGGGTAAAA: 20 % of maximum
AAAAAAAAGGACATTTTTTCTTTTTGAAAA: 44.1 % of maximum
AAAAAATGCCCATGTGCACCCGTACGAAAA: 30.2 % of maximum
AAAAAAATCATCCTATTGTTGCTGTCAAAA: 10.1 % of maximum
AAAAAAGCATATCTTCAGAACTTGCCAAAA: 10.1 % of maximum
AAAAAAGGTTTAGCCCATGCCTGTGCAAAA: 27.7 % of maximum

Set 5 — target: CCNB2, cyclin fold, Cln2 fusion (human); method: yeast growth competition, sequencing; matrix: yeast; notes: weak parent motif; reference: not given; reading: higher = stronger binding; endpoint: normalised enrichment score
Starting sequence: PKN2 docking peptide (human); VSAVRKLDFSDTM
VSAVRKLDFVDTM [S10V]: -0.271
VSAVRKVDFSDTM [L7V]: -0.149
VSAVRKLDFSETM [D11E]: 0.44
VSAVRILDFSDTM [K6I]: 0.0425
VSAVRKLDFSYTM [D11Y]: 0.236
VSAPRKLDFSDTM [V4P]: 0.0563
VSAVRKDDFSDTM [L7D]: -0.235
VIAVRKLDFSDTM [S2I]: 0.481
VKAVRKLDFSDTM [S2K]: 0.279
VSAVRKLDFCDTM [S10C]: 0.335
VSAVRKLDFSDKM [T12K]: 0.933
VSAVRKLDFSFTM [D11F]: -0.0864
VSAYRKLDFSDTM [V4Y]: 0.215
VSAVRKLDFSDEM [T12E]: 1.33
VAAVRKLDFSDTM [S2A]: 0.0824
VSAVRKLDFRDTM [S10R]: 0.262
VSAVGKLDFSDTM [R5G]: -0.791
VSAVRMLDFSDTM [K6M]: 0.404
VSAVRKLDFSDWM [T12W]: 0.529
VSAVRKLDFSDYM [T12Y]: 0.733
VFAVRKLDFSDTM [S2F]: -0.135
VSAVRKKDFSDTM [L7K]: 0.202
VSNVRKLDFSDTM [A3N]: 0.113

Set 6 — method: protein binding microarray; molecule type: double-stranded DNA, one strand shown; matrix: in vitro; concentration: not given; reference: not given; reading: higher = stronger binding; endpoint: E-score
Target: Histone acetyltransferase KAT6A, winged helix 1, GST fusion (KAT6A, Homo sapiens, UniProt Q92794, residues 1-85)
Notes: 8-mer, flanks averaged, mean of 2 arrays, mostly near background
Construct (chain): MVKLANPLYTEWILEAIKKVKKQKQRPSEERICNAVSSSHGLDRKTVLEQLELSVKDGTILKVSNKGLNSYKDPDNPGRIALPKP
ATTAAGGG: -0.106
GTGAGCAC: -0.091
TGACGGAA: 0.223
AGGTTCCC: 0.0227
AACCGGCA: 0.162
ACACATCA: -0.174
GTTACCGA: 0.167
AGAGCCGC: 0.314
ACGTCTCC: 0.0124
CACCGATA: 0.0504
CCACGCTC: 0.0502
CGGTAAAA: 0.14
TGAGATAA: -0.0702
ATACAGGG: -0.0614
CTGGTTTC: -0.025
CCGGACCA: 0.092
ATGTGATC: -0.0254
AGGGTAGC: 0.0767
CTCGAGAC: -0.136
AGAGTTTC: -0.164
ACATGATA: -0.0527
ATATACTC: -0.253
AGCTGCGA: 0.0519
ACTGATCG: -0.0758
AATTTACC: -0.0203
